{"data": "Measured values pooled from the literature", "B1": "enzyme A172S/A173G/A497K/C179K/M174T/Q178P (Streptomyces platensis, UniProt A0A0A0V031); chain MQHTTIGDVLREHRRSHPGRTALVDGPVRLTWPELDDRVNRLAGSLAASGIGRGDRIMWLGQNSFRVYELIAAAGKLGAMVCVGYWRWAPPEMEFALRDFDPHLVVWQHQEIHETVARTREALGSDDTARWLRHDSAPQDPDGYEAFLAAGGLADPDLDIDPDSPVLVLYTSGTSGRPKGSLLSHTNLIAMATAAAWLGDIDHTTAFLNSGPMFHIGNHQFWGMPTLLMAGKNVIVRRVVAEEVRDLLVAEECTHAFLMPPTVAEIVRLNRDTGHDLSRLRATVAPHLWEGMATTDTSRFTRSGAAAGRGYGQTELSGFAVTAAYGGPAAGNAGRPGPGLTVRVLDTAGRECAVGEAGEICARGTVVHRGYWNRDEVNAHRFRSGWWHTTDLGRREPDGSLTFLGTTTRMLKSAAENIFPAEVENCIEQHPAVREAAVIGVPNTRWAQDVKAVVVLEPDAGVSEQEIIDHCRPRIASYKKPKSVAFAAALPRTVSGKRDYDALDKEYGGGGYPGAATLGPGR", "B2": "enzyme E416A (Streptomyces platensis, UniProt A0A0A0V031); chain MQHTTIGDVLREHRRSHPGRTALVDGPVRLTWPELDDRVNRLAGSLAASGIGRGDRIMWLGQNSFRVYELIAAAGKLGAMVCVGYWRWAPPEMEFALRDFDPHLVVWQHQEIHETVARTREALGSDDTARWLRHDSAPQDPDGYEAFLAAGGLADPDLDIDPDSPVLVLYTAAMSGRQCGSLLSHTNLIAMATAAAWLGDIDHTTAFLNSGPMFHIGNHQFWGMPTLLMAGKNVIVRRVVAEEVRDLLVAEECTHAFLMPPTVAEIVRLNRDTGHDLSRLRATVAPHLWEGMATTDTSRFTRSGAAAGRGYGQTELSGFAVTAAYGGPAAGNAGRPGPGLTVRVLDTAGRECAVGEAGEICARGTVVHRGYWNRDEVNAHRFRSGWWHTTDLGRREPDGSLTFLGTTTRMLKSAAANIFPAEVENCIEQHPAVREAAVIGVPNTRWAQDVKAVVVLEPDAGVSEQEIIDHCRPRIASYKKPKSVAFAAALPRTVSGARDYDALDKEYGGGGYPGAATLGPGR", "note": "Lines come from different studies, so protocols differ. ± marks the error that the study gave.", "sequence of UniProt P21729 (whole entry, looked up)": "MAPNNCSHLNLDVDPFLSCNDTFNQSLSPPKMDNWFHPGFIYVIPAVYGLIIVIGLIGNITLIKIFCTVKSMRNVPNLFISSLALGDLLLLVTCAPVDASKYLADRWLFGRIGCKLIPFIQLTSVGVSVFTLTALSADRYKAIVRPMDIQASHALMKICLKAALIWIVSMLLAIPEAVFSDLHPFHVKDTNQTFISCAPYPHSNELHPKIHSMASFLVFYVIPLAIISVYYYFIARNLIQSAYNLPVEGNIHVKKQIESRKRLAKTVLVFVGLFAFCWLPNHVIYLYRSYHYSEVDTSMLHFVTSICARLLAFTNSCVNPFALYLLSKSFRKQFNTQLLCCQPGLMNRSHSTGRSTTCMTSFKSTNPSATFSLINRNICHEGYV"}
{"Substance": "N=C(N)NCCC[C@@H]1NC(=O)[C@H](CCCCNC(=O)CCOCCOCCOCCOCCNC(=O)CC[C@H](NC(=O)CCOCCOCCOCCOCCNC(=O)CC[C@H](NC(=O)CN2CCN(CC(=O)O)CCN(CC(=O)O)CCN(CC(=O)O)CC2)C(=O)NCCOCCOCCOCCOCCC(=O)N[C@@H](CCC(=O)NCCOCCOCCOCCOCCC(=O)NCCCC[C@@H]2NC(=O)[C@@H](Cc3ccccc3)NC(=O)[C@H](CC(=O)O)NC(=O)CNC(=O)[C@H](CCCNC(=N)N)NC2=O)C(=O)NCCOCCOCCOCCOCCC(=O)NCCCC[C@@H]2NC(=O)[C@@H](Cc3ccccc3)NC(=O)[C@H](CC(=O)O)NC(=O)CNC(=O)[C@H](CCCNC(=N)N)NC2=O)C(=O)NCCOCCOCCOCCOCCC(=O)NCCCC[C@@H]2NC(=O)[C@@H](Cc3ccccc3)NC(=O)[C@H](CC(=O)O)NC(=O)CNC(=O)[C@H](CCCNC(=N)N)NC2=O)NC(=O)[C@@H](Cc2ccccc2)NC(=O)[C@H](CC(=O)O)NC(=O)CNC1=O [indium-111 labelled]", "system": "female athymic nude mice, kidney", "setting": "intravenous, 3 µCi, 24 h, U-87 MG glioma xenograft", "quantity": "tissue uptake", "value": "4.27 ± 0.22 %ID/g"}
{"Substance": "C=Cc1c(C)c2cc3nc(c4c5[nH]c(cc6nc(cc1[nH]2)C(C)=C6CC)c(C)c5C(=O)C4)[C@@H](CCC(=O)NCC(=O)N1CCC[C@H]1C(=O)N[C@@H](CC(C)C)C(=O)NCC(=O)N[C@@H](Cc1ccccc1)C(=O)N[C@@H](CCCNC(=N)N)C(=O)N[C@H](C(=O)NCC(=O)N[C@@H](CCCCN)C(N)=O)C(C)C)[C@@H]3C", "tested on": "OA patient synovial fibroblasts", "test": "flow cytometry, measured: cellular uptake", "setting": "1 µM, 1 h", "quantity": "fluorescent cells", "value": "30 ± 10%"}
{"Substance": "CCCNC(=O)[C@H](CC(C)C)NC(=O)[C@H](Cc1c[nH]cn1)NC(=O)CNC(=O)[C@@H](NC(=O)[C@H](C)NC(=O)[C@H](Cc1c[nH]c2ccccc12)NC(=O)[C@H](CCC(N)=O)NC(=O)[C@@H](Cc1ccccc1)NC(=O)CCCCCNC(=O)CN1CCN(CC(=O)O)CCN(CC(=O)O)CCN(CC(=O)O)CC1)C(C)C [indium-111 labelled]", "tested on": "Gastrin-releasing peptide receptor (Mus musculus, UniProt P21729)", "test": "biodistribution", "system": "CF-1 mice, heart", "setting": "intravenous, 1 h, together with: bombesin 100 µg, blocking", "quantity": "tissue uptake", "value": "0.13 ± 0.02 %ID/g"}
{"Substance": "N=C(N)NCCC[C@@H]1NC(=O)[C@H](CCCCNC(=O)CNC(=O)CNC(=O)CNC(=O)CC[C@H](NC(=O)CCOCCOCCOCCOCCNC(=O)CC[C@H](NC(=O)CN2CCN(CC(=O)O)CCN(CC(=O)O)CCN(CC(=O)O)CC2)C(=O)NCCOCCOCCOCCOCCC(=O)N[C@@H](CCC(=O)NCC(=O)NCC(=O)NCC(=O)NCCCC[C@@H]2NC(=O)[C@@H](Cc3ccccc3)NC(=O)[C@H](CC(=O)O)NC(=O)CNC(=O)[C@H](CCCNC(=N)N)NC2=O)C(=O)NCC(=O)NCC(=O)NCC(=O)NCCCC[C@@H]2NC(=O)[C@@H](Cc3ccccc3)NC(=O)[C@H](CC(=O)O)NC(=O)CNC(=O)[C@H](CCCNC(=N)N)NC2=O)C(=O)NCC(=O)NCC(=O)NCC(=O)NCCCC[C@@H]2NC(=O)[C@@H](Cc3ccccc3)NC(=O)[C@H](CC(=O)O)NC(=O)CNC(=O)[C@H](CCCNC(=N)N)NC2=O)NC(=O)[C@@H](Cc2ccccc2)NC(=O)[C@H](CC(=O)O)NC(=O)CNC1=O [indium-111 labelled]", "system": "female athymic nude mice, eyes", "setting": "intravenous, 3 µCi, 72 h, U-87 MG glioma xenograft", "quantity": "tissue uptake", "value": "0.35 ± 0.24 %ID/g"}
{"Substance": "B1", "tested on": "C[C@@]12CCC[C@@](C)(C(=O)OP(=O)(O)OC[C@H]3O[C@@H](n4cnc5c(N)ncnc54)[C@H](O)[C@@H]3O)[C@H]1C[C@@H](O)[C@]13C[C@H]4C[C@H](O[C@@]4(C)C1)[C@@H]23", "test": "steady-state kinetics", "setting": "pH 7.8, 25 °C", "quantity": "Vmax", "value": "8.58 µmol/min"}
{"Substance": "CC[C@@]1(O)C(=O)OCc2c1cc1n(c2=O)Cc2cc3cc(OC(=O)CCCC(=O)NCC(=O)N[C@@H](Cc4ccccc4)C(=O)N[C@@H](Cc4ccccc4)C(=O)N[C@@H](Cc4ccc(OP(=O)(O)O)cc4)C(=O)NCCSSCCNC(=O)CCC(=O)N[C@@H](CCC(=O)O)C(=O)N[C@@H](CCCNC(=N)N)C(=O)NCC(=O)N[C@@H](CC(=O)O)C(=O)O)ccc3nc2-1", "tested on": "HepG2", "test": "TEM", "system": "culture medium", "setting": "100 µM, 0.5 h", "quantity": "nanoparticle diameter", "value": "50 to 100 nm"}
{"Substance": "CCCC[C@H](NC(=O)CNC(=O)CNC(=O)c1ccc(NN)nc1)C(=O)N[C@H]1CC(=O)NCCCC[C@@H](C(N)=O)NC(=O)[C@H](Cc2c[nH]c3ccccc23)NC(=O)[C@H](CCCNC(=N)N)NC(=O)[C@@H](Cc2ccccc2)NC(=O)[C@H](Cc2c[nH]cn2)NC1=O [technetium-99m labelled]", "system": "C57 mouse, B16/F1 melanoma-bearing", "setting": "intravenous, 4 h", "how to read": "relative to: tumour over blood", "quantity": "tissue uptake ratio", "value": 110}
{"Substance": "O=C(O)CC[C@H](NC(=O)N[C@@H](CCCCNC(=O)[C@H](Cc1ccc2ccccc2c1)NC(=O)[C@H]1CC[C@H](CNC(=O)CNC(=O)CNC(=O)CNC(=O)CN2CCN(CC(=O)O)CCN(C(CCC(=O)NCCC[P+](c3ccccc3)(c3ccccc3)c3ccccc3)C(=O)O)CCN(CC(=O)O)CC2)CC1)C(=O)O)C(=O)O (some centres unmarked) [terbium-161 labelled]", "test": "radio-HPLC", "system": "tumour-bearing mice, urine", "setting": "iv, 5 MBq, 10 min", "quantity": "intact radiocomplex", "value": "98.6 ± 1.1%"}
{"Substance": "B2 (enzyme E416A)", "tested on": "C[C@@]12CCC[C@@](C)(C(=O)OP(=O)(O)OC[C@H]3O[C@@H](n4cnc5c(N)ncnc54)[C@H](O)[C@@H]3O)[C@H]1C[C@@H](O)[C@]13C[C@H]4C[C@H](O[C@@]4(C)C1)[C@@H]23", "test": "steady-state kinetics", "setting": "pH 7.8, 25 °C", "quantity": "Vmax", "value": "6.42 µmol/min"}
{"Substance": "NCCOCCOCCOCCOCCOCCOCCC(=O)NCCC(=O)NCCCC[C@H](NC(=O)CCNC(=O)CCOCCOCCOCCOCCOCCOCCN)C(=O)NCCOCCOCCOCCOCCOCCOCCC(=O)NCCC(=O)NCCCC[C@H](NC(=O)CCNC(=O)CCOCCOCCOCCOCCOCCOCCNC(=O)[C@H](CCCCNC(=O)CCNC(=O)CCOCCOCCOCCOCCOCCOCCN)NC(=O)CCNC(=O)CCOCCOCCOCCOCCOCCOCCN)C(=O)NCCOCCOCCOCCOCCOCCOCCC(=O)NCCC(=O)NCCCC[C@H](NC(=O)CCNC(=O)CCOCCOCCOCCOCCOCCOCCNC(=O)[C@H](CCCCNC(=O)CCNC(=O)CCOCCOCCOCCOCCOCCOCCNC(=O)[C@H](CCCCNC(=O)CCNC(=O)CCOCCOCCOCCOCCOCCOCCN)NC(=O)CCNC(=O)CCOCCOCCOCCOCCOCCOCCN)NC(=O)CCNC(=O)CCOCCOCCOCCOCCOCCOCCNC(=O)[C@H](CCCCNC(=O)CCNC(=O)CCOCCOCCOCCOCCOCCOCCN)NC(=O)CCNC(=O)CCOCCOCCOCCOCCOCCOCCN)C(=O)NCCOCCOCCOCCOCCOCCOCCC(=O)N[C@@H](CCCCNC(=O)c1ccc2c(c1)C(=O)OC21c2ccc(O)cc2Oc2cc(O)ccc21)C(=O)NCCC(=O)O", "tested on": "J774.E macrophages", "test": "MTT", "setting": "40 nM, 1 h, 37 °C, 10% FBS, with or without mannan", "how to read": "relative to: untreated", "quantity": "viability", "value": "not toxic"}
{"Substance": "O=C(O)C[C@H](NC(=O)[C@H](CO)NC(=O)[C@H](CO)NC(=O)[C@H](CC(=O)O)NC(=O)[C@H](CO)NC(=O)C1=CO[C@@H](O[C@@H]2O[C@H](CO)[C@@H](O)[C@H](O)[C@H]2O)[C@@H]2C(CO)=CC[C@H]12)C(=O)O", "tested on": "mouse primary osteoblasts", "test": "CCK-8", "setting": "up to 10 µM, 48 h", "quantity": "viability", "value": "~90%"}
{"note": "Excerpt of the above:"}
{"Substance": "C=Cc1c(C)c2cc3nc(c4c5[nH]c(cc6nc(cc1[nH]2)C(C)=C6CC)c(C)c5C(=O)C4)[C@@H](CCC(=O)NCC(=O)N1CCC[C@H]1C(=O)N[C@@H](CC(C)C)C(=O)NCC(=O)N[C@@H](Cc1ccccc1)C(=O)N[C@@H](CCCNC(=N)N)C(=O)N[C@H](C(=O)NCC(=O)N[C@@H](CCCCN)C(N)=O)C(C)C)[C@@H]3C", "tested on": "OA patient synovial fibroblasts", "test": "flow cytometry, measured: cellular uptake", "setting": "1 µM, 1 h", "quantity": "fluorescent cells", "value": "30 ± 10%"}
{"Substance": "CCCNC(=O)[C@H](CC(C)C)NC(=O)[C@H](Cc1c[nH]cn1)NC(=O)CNC(=O)[C@@H](NC(=O)[C@H](C)NC(=O)[C@H](Cc1c[nH]c2ccccc12)NC(=O)[C@H](CCC(N)=O)NC(=O)[C@@H](Cc1ccccc1)NC(=O)CCCCCNC(=O)CN1CCN(CC(=O)O)CCN(CC(=O)O)CCN(CC(=O)O)CC1)C(C)C [indium-111 labelled]", "tested on": "Gastrin-releasing peptide receptor (Mus musculus, UniProt P21729)", "test": "biodistribution", "system": "CF-1 mice, heart", "setting": "intravenous, 1 h, together with: bombesin 100 µg, blocking", "quantity": "tissue uptake", "value": "0.13 ± 0.02 %ID/g"}
